Results of several laboratories.
Each line is one published result; not all experiments were run side by side. ± gives the spread as reported.
UniProt O43148, sequence (whole entry, looked up): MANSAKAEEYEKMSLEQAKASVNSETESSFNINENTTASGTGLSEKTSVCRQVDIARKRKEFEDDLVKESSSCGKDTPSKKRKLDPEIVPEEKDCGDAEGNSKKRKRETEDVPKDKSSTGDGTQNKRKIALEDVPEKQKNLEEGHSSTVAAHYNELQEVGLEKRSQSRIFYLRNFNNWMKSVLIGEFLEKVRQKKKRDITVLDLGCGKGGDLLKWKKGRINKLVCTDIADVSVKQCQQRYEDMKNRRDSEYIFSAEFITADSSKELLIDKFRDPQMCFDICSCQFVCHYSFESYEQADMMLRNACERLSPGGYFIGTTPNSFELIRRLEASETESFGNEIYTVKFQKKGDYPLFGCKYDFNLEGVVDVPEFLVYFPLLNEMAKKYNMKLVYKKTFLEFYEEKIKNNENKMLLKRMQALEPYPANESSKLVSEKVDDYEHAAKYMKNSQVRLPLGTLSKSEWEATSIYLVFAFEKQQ
UniProt Q99828, sequence (whole entry, looked up): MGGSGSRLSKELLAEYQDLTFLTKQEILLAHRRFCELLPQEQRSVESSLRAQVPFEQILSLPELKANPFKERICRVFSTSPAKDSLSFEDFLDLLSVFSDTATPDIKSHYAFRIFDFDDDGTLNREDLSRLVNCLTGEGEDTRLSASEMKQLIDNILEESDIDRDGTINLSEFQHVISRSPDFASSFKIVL
UniProt Q8E0N2, sequence (whole entry, looked up): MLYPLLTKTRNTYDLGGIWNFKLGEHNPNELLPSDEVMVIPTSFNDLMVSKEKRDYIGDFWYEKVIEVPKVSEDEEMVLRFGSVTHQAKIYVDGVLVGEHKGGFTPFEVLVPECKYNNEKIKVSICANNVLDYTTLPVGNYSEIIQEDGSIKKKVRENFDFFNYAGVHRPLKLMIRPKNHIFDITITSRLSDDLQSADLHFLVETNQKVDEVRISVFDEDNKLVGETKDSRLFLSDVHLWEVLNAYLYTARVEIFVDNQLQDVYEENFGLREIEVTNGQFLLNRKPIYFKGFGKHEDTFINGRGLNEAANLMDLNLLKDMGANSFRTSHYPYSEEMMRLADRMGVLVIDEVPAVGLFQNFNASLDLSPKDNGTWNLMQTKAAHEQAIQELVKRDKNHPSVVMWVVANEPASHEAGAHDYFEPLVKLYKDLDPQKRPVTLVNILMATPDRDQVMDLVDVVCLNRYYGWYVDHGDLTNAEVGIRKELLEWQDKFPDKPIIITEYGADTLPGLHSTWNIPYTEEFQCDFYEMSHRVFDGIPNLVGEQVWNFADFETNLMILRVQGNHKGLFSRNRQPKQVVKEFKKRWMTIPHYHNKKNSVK
UniProt Q6IQ20, sequence (whole entry, looked up): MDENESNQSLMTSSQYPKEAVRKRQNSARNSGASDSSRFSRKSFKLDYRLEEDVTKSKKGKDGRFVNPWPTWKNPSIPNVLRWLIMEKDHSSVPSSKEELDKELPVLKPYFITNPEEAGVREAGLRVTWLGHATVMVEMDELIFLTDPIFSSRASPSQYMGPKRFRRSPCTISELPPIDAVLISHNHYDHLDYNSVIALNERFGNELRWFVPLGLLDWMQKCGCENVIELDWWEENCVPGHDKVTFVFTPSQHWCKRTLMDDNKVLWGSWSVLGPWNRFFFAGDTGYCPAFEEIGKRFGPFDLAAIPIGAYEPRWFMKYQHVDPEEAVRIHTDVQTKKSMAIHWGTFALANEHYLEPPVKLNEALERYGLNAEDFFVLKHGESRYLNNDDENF
UniProt P40763, sequence (whole entry, looked up): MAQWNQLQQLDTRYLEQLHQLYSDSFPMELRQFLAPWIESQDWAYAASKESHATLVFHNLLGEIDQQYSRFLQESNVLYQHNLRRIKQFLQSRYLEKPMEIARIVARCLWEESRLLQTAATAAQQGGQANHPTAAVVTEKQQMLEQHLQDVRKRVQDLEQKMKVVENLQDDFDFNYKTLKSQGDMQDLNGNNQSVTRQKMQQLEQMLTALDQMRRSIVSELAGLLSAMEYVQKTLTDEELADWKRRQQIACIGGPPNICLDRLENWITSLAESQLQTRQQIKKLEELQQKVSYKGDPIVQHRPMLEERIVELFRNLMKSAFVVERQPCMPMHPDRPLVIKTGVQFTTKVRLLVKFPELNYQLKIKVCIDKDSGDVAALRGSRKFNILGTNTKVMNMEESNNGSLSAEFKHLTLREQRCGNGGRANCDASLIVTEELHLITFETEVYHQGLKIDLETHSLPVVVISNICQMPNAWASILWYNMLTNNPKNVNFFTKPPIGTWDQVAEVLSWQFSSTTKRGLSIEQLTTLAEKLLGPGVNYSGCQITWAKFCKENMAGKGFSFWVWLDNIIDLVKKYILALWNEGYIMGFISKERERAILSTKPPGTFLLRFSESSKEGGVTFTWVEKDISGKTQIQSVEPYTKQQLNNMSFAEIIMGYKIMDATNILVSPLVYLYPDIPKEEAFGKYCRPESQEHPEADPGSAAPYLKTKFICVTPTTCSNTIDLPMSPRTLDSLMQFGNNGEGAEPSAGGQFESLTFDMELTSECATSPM
UniProt P08684, sequence (whole entry, looked up): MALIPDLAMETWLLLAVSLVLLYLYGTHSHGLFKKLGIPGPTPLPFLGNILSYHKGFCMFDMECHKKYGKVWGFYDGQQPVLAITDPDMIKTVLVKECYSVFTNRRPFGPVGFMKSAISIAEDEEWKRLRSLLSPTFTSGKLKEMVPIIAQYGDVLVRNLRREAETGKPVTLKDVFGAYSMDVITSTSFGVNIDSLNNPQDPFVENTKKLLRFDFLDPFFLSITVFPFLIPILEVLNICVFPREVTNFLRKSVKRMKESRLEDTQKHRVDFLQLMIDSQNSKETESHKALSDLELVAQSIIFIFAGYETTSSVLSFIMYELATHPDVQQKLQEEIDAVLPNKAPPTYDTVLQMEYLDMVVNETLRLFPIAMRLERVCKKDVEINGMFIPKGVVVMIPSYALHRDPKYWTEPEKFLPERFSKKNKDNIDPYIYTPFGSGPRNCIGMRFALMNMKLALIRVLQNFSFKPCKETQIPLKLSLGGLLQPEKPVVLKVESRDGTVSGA
UniProt P18564, sequence (whole entry, looked up): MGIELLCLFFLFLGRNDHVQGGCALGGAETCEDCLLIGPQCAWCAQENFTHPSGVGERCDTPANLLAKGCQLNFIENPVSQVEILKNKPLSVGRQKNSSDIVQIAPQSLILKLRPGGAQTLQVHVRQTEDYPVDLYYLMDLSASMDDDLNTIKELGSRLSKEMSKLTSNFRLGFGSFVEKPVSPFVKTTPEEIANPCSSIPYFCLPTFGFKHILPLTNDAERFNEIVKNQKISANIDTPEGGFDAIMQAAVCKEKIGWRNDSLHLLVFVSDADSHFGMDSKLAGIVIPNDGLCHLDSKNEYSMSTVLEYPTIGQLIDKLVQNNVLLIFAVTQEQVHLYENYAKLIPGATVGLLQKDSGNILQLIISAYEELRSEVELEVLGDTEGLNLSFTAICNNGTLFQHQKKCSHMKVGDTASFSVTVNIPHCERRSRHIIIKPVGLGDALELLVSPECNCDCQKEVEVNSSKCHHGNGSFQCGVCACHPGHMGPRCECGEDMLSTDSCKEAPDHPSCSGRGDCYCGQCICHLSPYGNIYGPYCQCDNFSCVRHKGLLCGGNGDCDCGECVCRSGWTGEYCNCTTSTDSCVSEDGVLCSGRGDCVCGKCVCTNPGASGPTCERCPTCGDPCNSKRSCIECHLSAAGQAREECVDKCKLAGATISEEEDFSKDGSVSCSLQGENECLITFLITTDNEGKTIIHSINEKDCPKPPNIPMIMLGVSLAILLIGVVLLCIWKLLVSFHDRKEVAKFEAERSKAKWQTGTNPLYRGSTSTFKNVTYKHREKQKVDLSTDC
UniProt Q92769, sequence (whole entry, looked up): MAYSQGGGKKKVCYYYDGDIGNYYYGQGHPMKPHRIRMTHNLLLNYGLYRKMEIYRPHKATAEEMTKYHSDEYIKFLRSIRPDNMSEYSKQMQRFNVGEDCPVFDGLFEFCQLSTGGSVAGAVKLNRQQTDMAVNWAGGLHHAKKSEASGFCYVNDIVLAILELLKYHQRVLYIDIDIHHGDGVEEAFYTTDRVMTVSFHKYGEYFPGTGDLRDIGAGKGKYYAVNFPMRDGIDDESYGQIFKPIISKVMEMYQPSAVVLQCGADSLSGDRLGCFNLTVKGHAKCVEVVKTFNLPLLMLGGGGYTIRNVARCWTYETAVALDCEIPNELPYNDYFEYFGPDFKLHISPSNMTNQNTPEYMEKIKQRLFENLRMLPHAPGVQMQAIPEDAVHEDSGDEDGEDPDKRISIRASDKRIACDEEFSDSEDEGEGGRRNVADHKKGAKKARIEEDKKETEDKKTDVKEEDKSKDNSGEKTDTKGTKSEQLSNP
UniProt Q6XEC0, sequence (whole entry, looked up): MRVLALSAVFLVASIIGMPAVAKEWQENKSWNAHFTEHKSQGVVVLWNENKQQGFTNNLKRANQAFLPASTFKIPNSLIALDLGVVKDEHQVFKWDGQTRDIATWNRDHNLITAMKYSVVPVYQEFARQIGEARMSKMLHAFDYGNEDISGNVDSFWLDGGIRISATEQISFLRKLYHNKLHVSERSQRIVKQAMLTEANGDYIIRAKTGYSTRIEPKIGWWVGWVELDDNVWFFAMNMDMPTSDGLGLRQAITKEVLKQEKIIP
UniProt P14600, sequence (whole entry, looked up): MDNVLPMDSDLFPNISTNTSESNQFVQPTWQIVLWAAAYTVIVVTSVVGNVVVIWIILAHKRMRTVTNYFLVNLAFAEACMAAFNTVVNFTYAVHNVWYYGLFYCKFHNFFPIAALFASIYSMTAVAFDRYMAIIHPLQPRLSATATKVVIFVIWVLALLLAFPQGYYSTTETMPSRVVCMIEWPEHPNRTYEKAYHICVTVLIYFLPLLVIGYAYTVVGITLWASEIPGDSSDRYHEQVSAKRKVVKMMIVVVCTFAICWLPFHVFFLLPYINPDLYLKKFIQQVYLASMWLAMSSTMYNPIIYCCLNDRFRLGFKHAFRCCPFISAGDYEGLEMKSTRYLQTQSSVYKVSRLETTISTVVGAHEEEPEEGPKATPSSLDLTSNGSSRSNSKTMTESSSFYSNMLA

SMILES | target | test | test system | setting | IC50
COc1ccc(CC[C@H]2OC(=O)[C@@H]3CCCCN3C(=O)C(=O)C(C)(C)COC(=O)/C=C/CCN(C)C(=O)[C@H](CC(C)C)N(C)C(=O)[C@H]3CCCN3C(=O)[C@H](Cc3ccccc3)N(C)C(=O)[C@H](c3ccccc3)NC(=O)CCC(=O)Nc3cccc2c3)cc1OC | FKBP1A/SLC29A1 (Homo sapiens, UniProt P62942+Q99808) | thymidine uptake, inhibitor | PK-15 expressing hENT1 | 30 min, added: [3H]-thymidine | 3.3 nM
COc1ccc(S(=O)(=O)n2nc(OC(=O)c3ccccc3)cc2N)cc1 | Genome polyprotein, NS2B-NS3 protease (dengue virus type 2, UniProt P29990) | enzyme activity, inhibitor |  | 30 min preincubation, added: 20 µM Bz-nKRR-AMC | 8500 ± 300 nM
CC(C)[C@H](NC(=O)c1ccc(CNc2nc3c(c(=O)[nH]2)CCC3)cc1)C(=O)NC1CNC1 | Collagenase 3 (MMP13, Homo sapiens, UniProt P45452) | enzyme activity, inhibitor |  | TFA salt, added: fTHP-15(FAM) substrate | 28 nM
CC1C(=NOCc2cc(-c3ccc(Cl)cc3)no2)C(C)C(c2ccc(Br)cc2)OC1c1ccc(Br)cc1 (stereo not shown) | DNA gyrase subunit B (gyrB, Escherichia coli, UniProt P0AES6) | ATPase activity, inhibitor |  |  | 5870 nM
NC(=O)C[C@H](NC(=O)[C@H](CC(N)=O)NC(=O)[C@H](CCC(=O)O)NC(=O)[C@@H](N)CS)C(=O)O | PPO3 (Agaricus bisporus, UniProt C7FF04) | enzyme activity, inhibitor |  |  | 144000 nM
C[C@]1(COC(=O)c2ccc(O)c(O)c2)[C@H](C(=O)O)N2C(=O)/C(=C/c3ccccn3)[C@H]2S1(=O)=O | Beta-lactamase OXA-48 (OXA-48, Klebsiella pneumoniae, UniProt Q6XEC0) | inhibitor |  | added: nitrocefin | 13 ± 2 nM
O=C(OC1Cc2c(O)cc(O)cc2OC1c1cc(O)c(O)c(O)c1)c1cc(O)c(O)c(O)c1 (stereo not shown) | mRNA cap guanine-N(7) methyltransferase, with RAM (RNMT, Homo sapiens, UniProt O43148) | N7-methyltransferase activity, inhibitor, Py-FLINT |  | RNMT-RAM complex, added: SAM 20 µM | 2880 ± 920 nM
CC[C@H](C)[C@@H]1NC(=O)[C@H](Cc2ccccc2)NC(=O)[C@H](C)NC(=O)[C@@H](NC(=O)[C@@H](NC(=O)[C@H](CO)NC(=O)[C@@H](N)Cc2ccc(O)cc2)[C@@H](C)O)CSC(=O)[C@H](CCSC)NC1=O | accessory gene regulator protein C (Staphylococcus aureus, UniProt O33587) |  |  |  | 0.613 nM
C[C@@H]1CN(c2nnnc3c2sc2nc(N4CCOCC4)c4c(c23)CCCC4)CCN1 | Beta-glucuronidase (Streptococcus agalactiae serotype V, UniProt Q8E0N2) |  | Streptococcus agalactiae |  | 2400 ± 400 nM
O=C(CCCCCCC(=O)Nc1ccccc1N=Nc1ccccc1)NO | Histone deacetylase 2 (HDAC2, Homo sapiens, UniProt Q92769) | enzyme activity, inhibitor |  | trans isomer | 43 ± 10 nM
CN1C(=O)C2(Cc3ccc(CC45SSC(CO)(C(=O)N4C)N(C)C5=O)cc3)SSC1(CO)C(=O)N2C (racemic) | Histone acetyltransferase p300, CH1 with HIF-1α (EP300, Homo sapiens, UniProt Q09472) | binding, fluorescence polarization competition |  | DTT 1 mM, added: HIF-1α C-TAD probe | 1500 ± 200 nM
CCCCCCCCCCCCCCCC[N+](C)(C)CCN(Cc1ccc(OC)cc1)c1ncccn1 | mRNA cap guanine-N(7) methyltransferase (RNMT, Homo sapiens, UniProt O43148) | enzyme activity, inhibitor |  |  | 1000 nM
CCn1c2ccccc2c2cc(NC(=O)CCc3nc(-c4ccccc4F)no3)ccc21 | Neuropeptide Y receptor type 5 (NPY5R, Homo sapiens, UniProt Q15761) | ligand displacement, radioligand |  |  | 190 nM
CN[C@H](CC(C)C)C(=O)N[C@H]1C(=O)N[C@@H](CC(N)=O)C(=O)N[C@H]2C(=O)N[C@H]3C(=O)N[C@H](C(=O)N[C@H](C(=O)O)c4cc(O)cc(O)c4-c4cc3ccc4O)[C@H](O)c3ccc(c(Cl)c3)Oc3cc2cc(c3O[C@@H]2O[C@H](CO)[C@@H](O)[C@H](O)[C@H]2O[C@H]2C[C@](C)(NCc3ccc(C(=O)OCCCCCCN(Cc4ccccn4)Cc4ccccn4)cc3)[C@H](O)[C@H](C)O2)Oc2ccc(cc2Cl)[C@H]1O | Metallo-beta-lactamase VIM-1 (VIM-1, Pseudomonas aeruginosa, UniProt A0A0F7KYQ8) | enzyme activity, inhibitor, fluorescence |  |  | 3600 nM
O=C(O)c1ccc(Br)cn1 | 4-diphosphocytidyl-2-C-methyl-D-erythritol kinase (ispE, Klebsiella pneumoniae subsp. pneumoniae, UniProt A6TAP2) | enzyme activity, PK/LDH coupled spectrophotometric |  |  | 145000 ± 4500 nM
Oc1ccc(-c2sc3cc(O)ccc3c2-c2ccc(OCCN3CCCCC3)cc2)cc1 | N-acyl-phosphatidylethanolamine-hydrolyzing phospholipase D (Homo sapiens, UniProt Q6IQ20) | enzyme activity, inhibitor, mass spectrometry |  |  | 58000 nM

SMILES | target | test | test system | setting | IC50
CC(C)C[C@H](NC(=O)[C@H](CC(=O)O)NC(=O)CNC(=O)[C@H](CCCNC(=N)N)NC(=O)[C@H](CC(C)C)NC(=O)[C@H](CC(N)=O)NC(=O)[C@@H]1CCCN1C(=O)[C@@H](NC(=O)[C@H](C)NC(=O)[C@H](CC(N)=O)NC(=O)CCOCCOCCOCCOCCOCCOCCOCCOCCOCCOCCOCCOCCOCCOCCOCCOCCOCCOCCOCCOCCOCCOCCOCCOCCOCCOCCOCCOCCNC(=O)CN1CCN(CC(=O)O)CCN(CC(=O)O)CC1)C(C)C)C(=O)N[C@@H](CCC(N)=O)C(=O)N[C@H](C(=O)N[C@@H](CC(C)C)C(=O)N[C@@H](C)C(=O)N[C@@H](CCC(N)=O)C(=O)N[C@@H](CCCNC(=N)N)C(=O)N[C@H](C(=O)N[C@@H](C)C(=O)N[C@@H](CCCNC(=N)N)C(=O)N[C@H](C(=O)NCCOCCOCCOCCOCCOCCOCCOCCOCCOCCOCCOCCOCCOCCOCCOCCOCCOCCOCCOCCOCCOCCOCCOCCOCCOCCOCCOCCOCCC(N)=O)[C@@H](C)O)C(C)C)C(C)C | Integrin alpha-V/beta-6 (Homo sapiens, UniProt P06756+P18564) | binding, competitive ELISA |  | added: biotinylated latency-associated peptide | 7 ± 3 nM
CC(C)C(=O)Nc1ccccc1-c1nn[nH]n1 | Metallo-beta-lactamase VIM-2 (VIM-2, Escherichia coli, UniProt Q5U7L7) | enzyme activity, inhibitor, fluorescence |  | with preincubation | > 100000 nM
CC[C@H](C)[C@H](NC(=O)[C@@H]1CSSC[C@H](NC(=O)[C@H](Cc2ccc(O)cc2)NC(=O)CNC(C)=O)C(=O)N[C@@H](CO)C(=O)N[C@@H](CCCNC(=N)N)C(=O)N[C@@H](CO)C(=O)N[C@@H](Cc2ccc(O)cc2)C(=O)N2CCC[C@H]2C(=O)N2CCC[C@H]2C(=O)N[C@@H](C(C)C)C(=O)N1)C(=O)N1CCC[C@H]1C(=O)N[C@@H](CC(=O)O)C(=O)O | Mannan-binding lectin serine protease 2 (Homo sapiens, UniProt O00187) | C3 deposition, inhibitor, ELISA | 100-fold diluted human serum | 30 min preincubation | 624 nM
CSCC[C@H](NC(=O)[C@H](C)NC(=O)[C@H](C)NC(=O)[C@H](C)N)C(=O)N[C@@H](CCCCN)C(=O)N[C@@H](CCCNC(=N)N)C(=O)N[C@@H](Cc1c[nH]cn1)C(=O)NCC(=O)N[C@@H](CC(C)C)C(N)=O | MHC class II I-A g7 (Mus musculus, UniProt P04228+Q31135) | peptide binding, competitor, competition ELISA |  | at least 24 h, pH 7.0, room temperature, added: biotinylated HEL 10-23 200 nM | > 50000 nM
CSCC[C@H](NC(=O)C(C)(C)NC(=O)CNC(=O)[C@H](Cc1ccc(O)cc1)NC(=O)[C@H](Cc1c[nH]c2ccccc12)NC(=O)[C@H](Cc1ccccc1)NC(=O)[C@H](CO)NC(=O)CNC(=O)CNC(=O)[C@H](CC(=O)O)NC(=O)[C@@H](N)CCC(=O)O)C(=O)N[C@@H](CCCCN)C(=O)N[C@@H](C)C(=O)N[C@@H](CC(C)C)C(=O)N[C@@H](Cc1ccc(O)cc1)C(=O)NCC(N)=O | Calcium and integrin-binding protein 1 (CIB1, Homo sapiens, UniProt Q99828) |  |  |  | 17 nM
CN(Cc1ccccc1)CP(=O)(O)O | Urease subunit alpha (Sporosarcina pasteurii, UniProt P41020) | enzyme activity, inhibitor, indophenol colorimetric |  | 20 min, pH 7.0, 37 °C, added: 50 mM urea | 300000 ± 6500 nM
Cc1ccc(C(C)C)cc1.[Cl][Ru]([Cl])[P](CP(c1ccccc1)c1ccccc1)(c1ccccc1)c1ccccc1 | Cathepsin B (CTSB, Homo sapiens, UniProt P07858) | enzyme activity, inhibitor, fluorescence |  |  | 143000 nM
C[N+]1(C)CCN(c2nnnc3c2sc2nc(N4CCOCC4)c4c(c23)CCCC4)CC1 | Beta-glucuronidase (uidA, Escherichia coli, UniProt P05804) | enzyme activity, inhibitor, absorbance |  | pH 7.5 | 9600 nM
COc1ccc2nc(C)cc(OCC(=O)Nc3cc(C)cc(C)c3)c2c1 | Cytochrome P450 3A4 (CYP3A4, Homo sapiens, UniProt P08684) | enzyme activity, inhibitor |  | added: VG substrate | 1900 nM
CCCC[C@H](NC(=O)[C@H](Cc1ccccc1)NC(=O)CNC(=O)[C@@H](C)NC(=O)[C@@H](N)Cc1ccc(O)cc1)C(=O)N1CCC[C@H]1C(=O)N[C@@H](CC(C)C)C(=O)N[C@@H](CO[C@@H]1O[C@H](CO)[C@@H](O)[C@H](O)[C@H]1O)C(=O)N[C@@H](Cc1c[nH]c2ccccc12)C(=O)NCc1cc(C(F)(F)F)cc(C(F)(F)F)c1 | Substance-P receptor (Rattus norvegicus, UniProt P14600) | ligand displacement, radioligand |  |  | 95.5 nM
CC(C)C[C@H](NC(=O)OCc1ccccc1)C(=O)N[C@@H](C[C@@H]1CCNC1=O)C(O)S(=O)(=O)O (stereo partly shown) | Genome polyprotein, 3C protease (Human enterovirus 71, UniProt B9VUU3) | protease activity, inhibitor, FRET | Enterovirus A71 | DTT 4 mM | 80 nM
CC(C)C[C@@H](/C=C/S(C)(=O)=O)NC(=O)[C@H](CC(C)C)NC(=O)[C@@H](NC(=O)N[C@H](C(=O)NCc1ccccc1)C(C)C)C(C)C | rabbit 26S proteasome β1 | caspase-like activity, inhibitor, fluorogenic substrate | purified proteasome | 30 min, 37 °C, added: fluorogenic caspase-like substrate | 18000 nM
N#Cc1cn([C@@H]2O[C@H](CSCC[C@H](N)C(=O)O)[C@@H](O)[C@H]2O)c2ncnc(N)c12 | Protein arginine N-methyltransferase 5 (PRMT5, Homo sapiens, UniProt O14744) | enzyme activity, inhibitor, radiometric |  |  | 9000 nM
C/C(=C\C(=O)N[C@@H](CC(C)C)C(=O)N1CC(F)(F)C[C@H]1C(=O)N[C@H](C)CCC(N)=O)c1ccc(OP(=O)(O)O)cc1 | Signal transducer and activator of transcription 3 (STAT3, Homo sapiens, UniProt P40763) | phosphopeptide binding, inhibitor, fluorescence polarization |  |  | 121 ± 16 nM
C[C@@H](NC(=O)[C@@H](N)Cc1ccc(O)cc1)C(=O)NCC(=O)N[C@@H](Cc1ccc(F)cc1)C(=O)Nc1ccccc1NC(=O)[C@H](Cc1ccc(F)cc1)NC(=O)CNC(=O)[C@@H](C)NC(=O)[C@@H](N)Cc1ccc(O)cc1 | delta opioid receptor, mouse | vas deferens contraction, agonist | mouse vas deferens |  | 0.66 ± 0.17 nM

Some of these lines once more:
SMILES | target | test | test system | setting | IC50
O=C(O)c1ccc(Br)cn1 | 4-diphosphocytidyl-2-C-methyl-D-erythritol kinase (ispE, Klebsiella pneumoniae subsp. pneumoniae, UniProt A6TAP2) | enzyme activity, PK/LDH coupled spectrophotometric |  |  | 145000 ± 4500 nM
Oc1ccc(-c2sc3cc(O)ccc3c2-c2ccc(OCCN3CCCCC3)cc2)cc1 | N-acyl-phosphatidylethanolamine-hydrolyzing phospholipase D (Homo sapiens, UniProt Q6IQ20) | enzyme activity, inhibitor, mass spectrometry |  |  | 58000 nM
CC(C)C[C@H](NC(=O)[C@H](CC(=O)O)NC(=O)CNC(=O)[C@H](CCCNC(=N)N)NC(=O)[C@H](CC(C)C)NC(=O)[C@H](CC(N)=O)NC(=O)[C@@H]1CCCN1C(=O)[C@@H](NC(=O)[C@H](C)NC(=O)[C@H](CC(N)=O)NC(=O)CCOCCOCCOCCOCCOCCOCCOCCOCCOCCOCCOCCOCCOCCOCCOCCOCCOCCOCCOCCOCCOCCOCCOCCOCCOCCOCCOCCOCCNC(=O)CN1CCN(CC(=O)O)CCN(CC(=O)O)CC1)C(C)C)C(=O)N[C@@H](CCC(N)=O)C(=O)N[C@H](C(=O)N[C@@H](CC(C)C)C(=O)N[C@@H](C)C(=O)N[C@@H](CCC(N)=O)C(=O)N[C@@H](CCCNC(=N)N)C(=O)N[C@H](C(=O)N[C@@H](C)C(=O)N[C@@H](CCCNC(=N)N)C(=O)N[C@H](C(=O)NCCOCCOCCOCCOCCOCCOCCOCCOCCOCCOCCOCCOCCOCCOCCOCCOCCOCCOCCOCCOCCOCCOCCOCCOCCOCCOCCOCCOCCC(N)=O)[C@@H](C)O)C(C)C)C(C)C | Integrin alpha-V/beta-6 (Homo sapiens, UniProt P06756+P18564) | binding, competitive ELISA |  | added: biotinylated latency-associated peptide | 7 ± 3 nM
CC(C)C(=O)Nc1ccccc1-c1nn[nH]n1 | Metallo-beta-lactamase VIM-2 (VIM-2, Escherichia coli, UniProt Q5U7L7) | enzyme activity, inhibitor, fluorescence |  | with preincubation | > 100000 nM
CC[C@H](C)[C@H](NC(=O)[C@@H]1CSSC[C@H](NC(=O)[C@H](Cc2ccc(O)cc2)NC(=O)CNC(C)=O)C(=O)N[C@@H](CO)C(=O)N[C@@H](CCCNC(=N)N)C(=O)N[C@@H](CO)C(=O)N[C@@H](Cc2ccc(O)cc2)C(=O)N2CCC[C@H]2C(=O)N2CCC[C@H]2C(=O)N[C@@H](C(C)C)C(=O)N1)C(=O)N1CCC[C@H]1C(=O)N[C@@H](CC(=O)O)C(=O)O | Mannan-binding lectin serine protease 2 (Homo sapiens, UniProt O00187) | C3 deposition, inhibitor, ELISA | 100-fold diluted human serum | 30 min preincubation | 624 nM
